Results collected from several papers.
Compare with care: the assays were run in different laboratories.
Organism: Staphylococcus aureus

Structure (SMILES)	assay	system	setting	MIC
CC[C@H](C)[C@H](NC(=O)[C@H](Cc1ccc(O)cc1)NC(=O)[C@@H](NC(=O)[C@H](Cc1c[nH]c2ccccc12)NC(=O)[C@@H]1CCCN1C(=O)[C@@H](NC(=O)[C@H](C)N)[C@@H](C)CC)[C@@H](C)CC)C(=O)N[C@@H](Cc1ccc(O)cc1)C(=O)N[C@@H](CCCNC(=N)N)C(=O)N[C@@H](CC(C)C)C(=O)N[C@@H](CC(C)C)C(=O)N[C@@H](CCCNC(=N)N)C(=O)N[C@@H](CCCCN)C(=O)NCC(=O)O	broth microdilution	ATCC 35556	18 h, 37 °C	3.75 µM
CC[C@H](C)[C@H](NC(=O)[C@H](CC(C)C)NC(=O)[C@H](CCCNC(=N)N)NC(=O)[C@@H](N)CCCNC(=N)N)C(=O)N[C@@H](CCCNC(=N)N)C(=O)N[C@@H](CCCCN)C(=O)N[C@@H](CC(C)C)C(=O)N[C@@H](CCCCN)C(=O)NCC(=O)N1CCC[C@H]1C(=O)N[C@H](C(=O)N[C@H](C(=O)N[C@@H](Cc1ccc(O)cc1)C(=O)N[C@@H](CC(C)C)C(=O)N[C@@H](Cc1ccc(O)cc1)C(=O)N[C@@H](Cc1ccccc1)C(=O)N[C@@H](CCCCN)C(=O)N[C@@H](CC(C)C)C(=O)N[C@@H](CCC(N)=O)C(=O)N[C@@H](CC(C)C)C(=O)N[C@@H](CC(C)C)C(=O)N[C@@H](CCCCN)C(=O)N[C@@H](CCCCN)C(N)=O)[C@@H](C)CC)[C@@H](C)CC		CCARM 3095, methicillin-resistant, Mueller-Hinton broth	24 h	64 µM
NCCCC1CN(c2ccc3c(n2)NC(=O)CO3)C(=O)O1 (stereo not shown)		ATCC 29213		160 µg/mL
CC[C@H](C)[C@H](N)C(=O)N[C@@H](CC(C)C)C(=O)NCC(=O)N[C@H](CCCNC(=N)N)C(=O)N[C@H](C(=O)N[C@@H](Cc1ccccc1)C(=O)N[C@@H](CCCCN)C(=O)NCC(=O)N[C@H](C(=O)N[C@@H](CCCCN)C(=O)N[C@@H](CC(=O)O)C(=O)N[C@H](C(=O)N[C@@H](CC(C)C)C(N)=O)[C@@H](C)CC)[C@@H](C)CC)[C@@H](C)CC	broth microdilution	ATCC 25923, Mueller-Hinton broth	16 h, 37 °C	12.5 µM
CC(C)C[C@@H]1NC(=O)[C@H](Cc2ccccc2)NC(=O)[C@H](Cc2ccc(O)cc2)NC(=O)[C@H](CC(C)C)NC(=O)[C@H](CCC(=O)O)NC(=O)[C@H](Cc2ccccc2)NC(=O)[C@H](CCCNC(=N)N)NC(=O)[C@H](CCC(N)=O)NC(=O)[C@H](CC(C)C)NC(=O)[C@H](CC(=O)O)NC(=O)[C@@H]2CCCN2C(=O)[C@H](CCCCN)NC(=O)[C@H](C(C)C)NC(=O)[C@H](CC(N)=O)NC(=O)[C@H](Cc2ccc(O)cc2)NC(=O)[C@H]([C@@H](C)O)NC(=O)[C@@H](N)CSSC[C@@H](C(=O)O)NC(=O)[C@H]([C@@H](C)O)NC(=O)[C@H](C(C)C)NC(=O)[C@H]([C@@H](C)O)NC(=O)CNC1=O	broth dilution	laboratory strain	24 h	> 40 µM
CC[C@H](C)[C@H](N)C(=O)N[C@@H](CC(C)C)C(=O)NCC(=O)N[C@@H](CCC(=O)O)C(=O)N[C@H](C(=O)N[C@@H](Cc1c[nH]c2ccccc12)C(=O)N[C@@H](CCCCN)C(=O)NCC(=O)N[C@H](C(=O)N[C@@H](CCCCN)C(=O)N[C@@H](CC(=O)O)C(=O)N[C@H](C(=O)N[C@@H](CC(C)C)C(N)=O)[C@@H](C)CC)[C@@H](C)CC)[C@@H](C)CC	broth microdilution	ATCC 25923	together with: KCl 4.5 mM	100 µM
CC[C@H](C)[C@H](NC(=O)[C@H](CC(C)C)NC(=O)[C@H](CCCNC(=N)N)NC(=O)[C@@H](N)CCCNC(=N)N)C(=O)N[C@@H](CCCNC(=N)N)C(=O)N[C@@H](CCCCN)C(=O)N[C@@H](CC(C)C)C(=O)N[C@@H](CCCCN)C(=O)NCC(=O)N[C@@H](CC(C)C)C(=O)N[C@@H](CCCCN)C(=O)N[C@@H](CCCCN)C(=O)N[C@@H](Cc1ccc(O)cc1)C(=O)N[C@@H](CC(C)C)C(=O)N[C@@H](Cc1ccc(O)cc1)C(=O)N[C@@H](Cc1ccccc1)C(=O)N[C@@H](CCCCN)C(=O)N[C@@H](CC(C)C)C(=O)N[C@@H](CCC(N)=O)C(=O)N[C@@H](CC(C)C)C(=O)N[C@@H](CC(C)C)C(=O)N[C@@H](CCCCN)C(=O)N[C@@H](CCCCN)C(N)=O	broth microdilution	KCTC 1621, Mueller-Hinton broth	together with: NH4Cl 6 µM	16 µM
CC(C)C[C@H](NC(=O)[C@@H](NC(=O)[C@H](CCCNC(=N)N)NC(=O)[C@H](CCC(N)=O)NC(=O)[C@H](Cc1ccccc1)NC(=O)[C@H](Cc1ccc(O)cc1)NC(=O)[C@H](CC(N)=O)NC(=O)[C@H](Cc1c[nH]c2ccccc12)NC(=O)[C@@H](NC(=O)[C@H](CCCNC(=N)N)NC(=O)[C@H](CCCCN)NC(=O)[C@@H](N)Cc1ccccc1)C(C)C)C(C)C)C(=O)N[C@H](C(=O)N[C@@H](CCCCN)C(=O)N[C@@H](CCCCN)C(=O)N[C@@H](Cc1ccc(O)cc1)C(=O)N[C@@H](C)C(N)=O)C(C)C	broth dilution	ATCC 25923, Mueller-Hinton broth	24 h, 37 °C	200 µM
CC[C@H](C)[C@H](NC(=O)[C@H](CC(C)C)NC(=O)[C@H](CCCCN)NC(=O)[C@@H](NC(=O)[C@H](C)NC(=O)[C@H](CCC(=O)O)NC(=O)[C@H](Cc1c[nH]cn1)NC(=O)[C@@H](NC(=O)[C@H](CCCCN)NC(=O)[C@H](CCC(N)=O)NC(=O)[C@H](Cc1ccccc1)NC(=O)[C@@H](NC(=O)[C@H](CCCCN)NC(=O)[C@@H](N)CCCCN)C(C)C)[C@@H](C)CC)[C@@H](C)CC)C(N)=O	broth microdilution	USA300 resistant	18 h, 37 °C	64 µM
CC[C@H](C)[C@H](NC(=O)[C@H](CCCCN)NC(=O)[C@H](CCCCN)NC(=O)CNC(=O)[C@H](CCCCN)NC(=O)[C@H](CC(C)C)NC(=O)[C@H](CCCCN)NC(=O)[C@H](CCCNC(=N)N)NC(=O)[C@@H](NC(=O)[C@H](CC(C)C)NC(=O)[C@H](CCCNC(=N)N)NC(=O)[C@@H](N)CCCNC(=N)N)[C@@H](C)CC)C(=O)N[C@@H](Cc1ccc(O)cc1)C(=O)N[C@@H](CC(C)C)C(=O)N[C@@H](Cc1ccc(O)cc1)C(=O)N[C@@H](Cc1ccccc1)C(=O)N[C@@H](CCCCN)C(=O)N[C@@H](CC(C)C)C(=O)N[C@@H](CCC(N)=O)C(=O)N[C@@H](CC(C)C)C(=O)N[C@@H](CC(C)C)C(=O)N[C@@H](CCCCN)C(=O)N[C@@H](CCCCN)C(N)=O	broth microdilution	KCTC 1621, Mueller-Hinton broth	no added salt	8 µM
CC[C@H](C)[C@H](NC(=O)[C@H](CCCCN)NC(=O)[C@H](CC(=O)O)NC(=O)[C@H](CC(C)C)NC(=O)[C@@H](NC(=O)[C@H](CC(N)=O)NC(=O)[C@H](CC(C)C)NC(=O)[C@@H](NC(=O)[C@H](Cc1ccccc1)NC(=O)[C@H](CCCCN)NC(=O)[C@H](CCCCN)NC(=O)CNC(=O)[C@H](C)NC(=O)[C@H](CC(N)=O)NC(=O)[C@H](CCCCN)NC(=O)[C@H](Cc1ccccc1)NC(=O)[C@H](CC(N)=O)NC(=O)[C@H](CCC(=O)O)NC(=O)[C@H](Cc1c[nH]c2ccccc12)NC(=O)[C@H](CC(C)C)NC(=O)[C@@H](N)CO)[C@@H](C)CC)[C@@H](C)CC)C(=O)N[C@@H](CCCNC(=N)N)C(N)=O		ATCC 6538	overnight, 37 °C, 10 % fetal bovine serum	8 µM
c1ccc(CCOC2CCCc3c2[nH]c2ccccc32)cc1 (stereo not shown)	broth microdilution	HG001		> 16 µg/mL
COc1ccnc(NC(=S)N2CCN(c3ncc(C(F)(F)F)cc3Cl)CC2)c1		MRSA USA500-2273, clinical		4 µM
CC[C@H](C)[C@H](NC(=O)[C@H](CC(C)C)NC(=O)[C@H](CCCNC(=N)N)NC(=O)[C@@H](N)CCCNC(=N)N)C(=O)N[C@@H](CC(C)C)C(=O)N[C@H](C(=O)N[C@@H](CCCCN)C(=O)N[C@H](C(=O)NCC(=O)N1CCC[C@H]1C(=O)N[C@H](C(=O)N[C@H](C(=O)N[C@@H](Cc1ccc(O)cc1)C(=O)N[C@@H](CCCCN)C(=O)N[C@@H](Cc1ccc(O)cc1)C(=O)N[C@@H](Cc1ccccc1)C(=O)N[C@@H](CCCCN)C(=O)N[C@@H](CCCCN)C(=O)N[C@@H](CCC(N)=O)C(=O)N[C@@H](CC(C)C)C(=O)N[C@@H](CC(C)C)C(=O)N[C@@H](CCCCN)C(=O)N[C@@H](CC(C)C)C(N)=O)[C@@H](C)CC)[C@@H](C)CC)[C@@H](C)O)[C@@H](C)O	broth microdilution	KCTC 1621, Mueller-Hinton broth	24 h, 37 °C	16 µM
CCCCCCCCCC(=O)N[C@@H](Cc1c[nH]c2ccccc12)C(=O)N[C@H](CC(N)=O)C(=O)N[C@@H](CC(=O)O)C(=O)N[C@@H]1C(=O)NCC(=O)N[C@@H](CCCN)C(=O)N[C@@H](CC(=O)O)C(=O)N[C@H](C)C(=O)N[C@@H](CC(=O)O)C(=O)NCC(=O)N[C@H](CO)C(=O)N[C@@H]([C@H](C)CC(=O)O)C(=O)N[C@@H](CC(=O)c2ccccc2N)C(=O)O[C@@H]1C		CRB, PBP4 overexpressor		4 µg/mL
CC[C@H](C)[C@H](NC(=O)[C@H](Cc1c[nH]c2ccccc12)NC(=O)[C@@H](NC(=O)[C@H](Cc1ccc(O)cc1)NC(=O)[C@@H]1CCCN1C(=O)[C@@H](NC(=O)[C@H](C)N)[C@@H](C)CC)[C@@H](C)CC)C(=O)N[C@@H](Cc1ccc(O)cc1)C(=O)N[C@@H](CCCNC(=N)N)C(=O)N[C@@H](CC(C)C)C(=O)N[C@@H](CC(C)C)C(=O)N[C@@H](CCCNC(=N)N)C(=O)N[C@@H](CCCCN)C(=O)NCC(N)=O	broth microdilution	ATCC 6051	18 h, 37 °C	1.88 µM
CC[C@H](C)[C@H](NC(=O)[C@H](CC(C)C)NC(=O)[C@H](CC(C)C)NC(=O)[C@H](CC(C)C)NC(=O)[C@@H](NC(=O)[C@@H](NC(=O)[C@H](CCCNC(=N)N)NC(=O)[C@H](CCCNC(=N)N)NC(=O)[C@H](CCCNC(=N)N)NC(=O)[C@H](CCCNC(=N)N)NC(=O)[C@H](CC(C)C)NC(=O)[C@H](CCCNC(=N)N)NC(=O)[C@H](CO)NC(=O)[C@@H](N)CO)[C@@H](C)CC)C(C)C)C(=O)N[C@@H](CO)C(=O)N[C@@H](CCCNC(=N)N)C(=O)N[C@@H](CCCNC(=N)N)C(=O)N[C@@H](CCCNC(=N)N)C(=O)N[C@@H](CCCNC(=N)N)C(N)=O	broth microdilution	ATCC 29213	highest value reported	4 µM
Cc1onc(-c2ccccc2)c1C(=O)N[C@@H]1C(=O)N2[C@@H]1SC(C)(C)[C@@H]2C(=O)O		1195201 multidrug-resistant		> 4 µg/mL
CC[C@H](C)[C@H](NC(=O)[C@H](CCCCN)NC(=O)[C@@H](NC(=O)[C@@H](NC(=O)[C@H](CC(C)C)NC(=O)[C@H](CCCNC(=N)N)NC(=O)[C@@H](NC(=O)[C@H](CC(C)C)NC(=O)[C@H](CCCNC(=N)N)NC(=O)CNC(=O)[C@H](Cc1ccccc1)NC(=O)[C@@H](N)CCCNC(=N)N)[C@@H](C)CC)[C@@H](C)CC)C(C)C)C(=O)N[C@@H](C)C(=O)N[C@@H](CCCNC(=N)N)C(=O)N[C@@H](CCCNC(=N)N)C(=O)N[C@@H](C)C(=O)N[C@@H](Cc1c[nH]cn1)C(=O)N[C@@H](CCCNC(=N)N)C(=O)N[C@@H](C)C(=O)N[C@@H](CCCNC(=N)N)C(=O)N[C@@H](CO)C(=O)N[C@@H](C)C(=O)N[C@H](C(=O)N[C@@H](CCCCN)C(=O)N[C@@H](C)C(=O)N[C@@H](C)C(=O)N[C@@H](CO)C(=O)N[C@@H](CC(N)=O)C(=O)N[C@H](C(=O)N[C@@H](C)C(=O)N[C@@H](CCC(=O)O)C(=O)N[C@@H](CC(C)C)C(=O)N[C@@H](C)C(=O)N[C@@H](Cc1c[nH]cn1)C(=O)NCC(=O)N[C@@H](CCC(=O)O)C(=O)O)C(C)C)C(C)C	broth microdilution		18 h, 37 °C	≤ 0.062 µM

A few entries again:
Structure (SMILES)	assay	system	setting	MIC
CC(C)C[C@H](NC(=O)[C@@H](NC(=O)[C@H](CCCNC(=N)N)NC(=O)[C@H](CCC(N)=O)NC(=O)[C@H](Cc1ccccc1)NC(=O)[C@H](Cc1ccc(O)cc1)NC(=O)[C@H](CC(N)=O)NC(=O)[C@H](Cc1c[nH]c2ccccc12)NC(=O)[C@@H](NC(=O)[C@H](CCCNC(=N)N)NC(=O)[C@H](CCCCN)NC(=O)[C@@H](N)Cc1ccccc1)C(C)C)C(C)C)C(=O)N[C@H](C(=O)N[C@@H](CCCCN)C(=O)N[C@@H](CCCCN)C(=O)N[C@@H](Cc1ccc(O)cc1)C(=O)N[C@@H](C)C(N)=O)C(C)C	broth dilution	ATCC 25923, Mueller-Hinton broth	24 h, 37 °C	200 µM
CC[C@H](C)[C@H](NC(=O)[C@H](CC(C)C)NC(=O)[C@H](CCCCN)NC(=O)[C@@H](NC(=O)[C@H](C)NC(=O)[C@H](CCC(=O)O)NC(=O)[C@H](Cc1c[nH]cn1)NC(=O)[C@@H](NC(=O)[C@H](CCCCN)NC(=O)[C@H](CCC(N)=O)NC(=O)[C@H](Cc1ccccc1)NC(=O)[C@@H](NC(=O)[C@H](CCCCN)NC(=O)[C@@H](N)CCCCN)C(C)C)[C@@H](C)CC)[C@@H](C)CC)C(N)=O	broth microdilution	USA300 resistant	18 h, 37 °C	64 µM
